Measured values gathered from unrelated publications.
“And” joins repeats or separate records; there may be more than shown. Numbers after ± are the reported error.

SMILES | tested on | test | system | conditions | scale | endpoint | value
O=C(/C=C/C=C/C=C/C1CCCCC1)NC1=C[C@@](O)(/C=C/C=C/C=C/C(=O)NC2=C(O)CCC2=O)[C@@H]2O[C@@H]2C1=O | COR-L23 | cell growth, CellTiter-Glo | – | 78 h | – | GI50 | 17.5 µM
Cc1cc(NC(=O)c2cccc(NC(=O)/C=C/CN(C)C)c2)ccc1Nc1nccc(-c2cccnc2)n1 | HEK293 AP1 reporter cells | AP-1 reporter gene, inhibitor | – | 10 µM, 6 h, unit not given, together with: PMA | relative to: PMA alone | reporter activity | 0.368
C[C@]12CC[C@@H]3c4ccc(O)cc4CC[C@H]3[C@@H]1CC[C@@H]2OC(=O)CCC1CCCC1 | MCF-10A | CellTiter-Glo | – | concentration not given | relative to: normalised, mean of replicates | viability | 102%
C#C[C@@]1(O)[C@@H](CO)O[C@@H](n2cc(Br)c3c(N)ncnc32)[C@@H]1O | Malme-3M | SRB | – | NCI-60 screen | – | TGI | 14.1 µM and 12.2 µM
Cn1cc(-c2ccc(-c3cncc(Cl)c3N3CCC4(CCNC4=O)CC3)cc2)cn1 | COLO 205 | gene expression, microarray, item: CDC20 mRNA | – | concentration not given, 6 h | relative to: untreated cells | log2 fold change | -2.05
COc1cc(C[C@H]2COC(=O)[C@@H]2Cc2ccc(O)c(OC)c2)ccc1O | neuroblastoma cells | Fura-2 ratiometric | – | concentration not given | – | calcium signalling | no effect
C=CCn1c(=O)c2cnc(Nc3ccc(N4CCN(C)CC4)cc3)nc2n1-c1ccc2c(n1)[C@@](O)(CC)CC2 | NCI-H1048 | flow cytometry | – | concentration not given | – | cells in G1 phase among γH2AX-positive cells | 4.2%
Nc1ncnc2c1ncn2[C@@H]1O[C@H](CO)[C@@H](O)[C@H]1O | activated human T cells | – | – | concentration not given, 4 h | relative to: vehicle | basal OCR | 50.4% and 41.1% and 41.8% and 44.7% and 49.6% and 43.7%
CC(C)(C)C(=O)Oc1ccc(S(=O)(=O)Nc2ccccc2C(=O)NCC(=O)O)cc1 | human peripheral blood neutrophils | NET formation | – | 500 µM, together with: MPO-ANCA immune complex, TNF-α | – | citrullinated histone H3 per neutrophil | 16.4 and 18.3 and 22.3 and 20.8 and 19 and 13.9
CCCCc1oc2ccc(NS(C)(=O)=O)cc2c1C(=O)c1ccc(OCCCN(CCCC)CCCC)cc1 | human embryonic stem cell aggregates | mRNA level, microarray, item: UBL3 | – | 0.5 µM, 120 h | relative to: untreated, up-regulated | fold change | 2.1 fold
COc1ccc(OC)c(-c2nc3ccc(-c4nc5ccc(N6CCN(C)CC6)cc5[nH]4)cc3[nH]2)c1 | Malme-3M | SRB | – | 10 µM, 48 h | – | growth percent | 109%
Cc1cnc2ccc3c(c2n1)N1CCC(O)N=C1N3C (stereo not shown) | BALB/c 3T3 | colony forming efficiency | – | 50 µM | – | colony number | 0 colonies per plate
NC1(c2ccc(-c3nc4ccn5c(=O)[nH]nc5c4cc3-c3ccccc3)cc2)CCC1 | MDA-MB-468 | flow cytometry, PI staining | – | EC60 concentration, 72 h, DMSO 22.2 | – | cells in S phase | 23.7%
O=C1C(O)=C([C@H]2CC[C@H](c3ccc(Cl)cc3)CC2)C(=O)c2ccccc21 | Toxoplasma gondii | parasite growth, luciferase reporter | HFF host cells, tachyzoites | 72 h | – | EC50 | 0.16 µM
Clc1nc(NCc2ccco2)c2[nH]cnc2n1 | iPSC-derived cardiomyocytes | RNA-seq, item: PSMA3-AS1 chr14 exon ending 58285756 | – | unit not given | relative to: DMSO minus compound | ΔPSI | 0.266
Cn1cc(Nc2nccc(-c3ccc4c(c3)CN(C3COC3)CC[C@H]4NC(=O)c3cn(C(C)(C)C)nn3)n2)cn1 | human B cells | – | – | 100 nM, 64 h, stimulation-downregulated genes, together with: CpG ODN2006 | – | number of upregulated genes | 124
CCn1cc(-c2cc(Cn3ccnc3)cc3c2CCN([C@H](c2cc(OC)ccn2)C2CC2)C3=O)c(C(F)(F)F)n1 | PSN1 | cell growth, inhibitor | – | 120 h | – | EC50 | 0.205 µM
COc1ccc(NC(=O)c2c(Nc3ccccc3)sc(C#N)c2NC(=O)CNc2ccc(Cl)cc2)cc1 | HepG2 | annexin V-FITC/PI | – | concentration not given | – | necrotic cells | 3.14 ± 1.3%
Nc1cccc2c1C(=O)N(C1CCC(=O)NC1=O)C2=O (stereo not shown) | RPMI-8226 | flow cytometry, item: CD294 | – | concentration not given | relative to: comparator compound alone | surface marker level | 188%
CC(C)NCC(O)c1ccc(O)c(O)c1 (stereo not shown) | mouse ventricular cardiomyocytes | – | – | dose not given, 0.379 s | – | sarcomere length | 1.8 µm
Cc1ccc(S(=O)(=O)/C=C/C#N)cc1 | Toxoplasma gondii | parasite growth, luciferase reporter | HFF, tachyzoite | 72 h | – | EC90 | 4980 µM
Cn1cc(-n2cnc3c(NCc4nc5cc(Cl)c(Cl)cc5[nH]4)nc(N4CCOCC4)nc32)cn1 | MDA-MB-468 | cell viability, CellCounting-Lite | – | 2000 nM, 37 °C | higher = more viable cells | luminescence signal | 51100 a.u. and 50400 a.u. and 45100 a.u.
CC(=O)c1nn(-c2ccc(Cl)cc2)/c(=N/N=C(\C)c2ccc(NC(=O)c3ccc(Cl)cc3)cc2)s1 | HepG2 | – | – | 0.312 µM | – | toxicity | 1.41%
CC/C(=N\NC(=O)NCc1cccc(O)c1)c1ccc(O)c(C)c1O | SK-OV-3 | Western blot, item: YAP | – | 10 µM, 6 h, 2D culture, unit not given | relative to: β-actin | protein level | 1.37 ± 0.17
Cn1c(Nc2nc3ccc(C(F)(F)F)cc3s2)nc2cc(C(=O)NCCOCCO)ccc21 | SH-SY5Y | RNA-seq, item: TMC6 mRNA | – | 5 µM, 5 h | relative to: untreated cells | fold change | 1.74

SMILES | tested on | test | system | conditions | scale | endpoint | value
CCc1cnc(N2CCC(c3nc(COc4ccc(-n5cnnn5)cc4)cs3)CC2)nc1 | HEK-293T | RNA-seq GSEA, item: HALLMARK_MITOTIC_SPINDLE | – | concentration not given | direction not given | normalized enrichment score | 0.759
CCn1cc(-c2cc(Cn3ccoc3=N)cc3c2CCN([C@@H](C)c2cc(OC)ccn2)C3=O)c(C(F)(F)F)n1 | KP2 | cell growth | – | 120 h | – | EC50 | > 30 µM
CN(C)C(=O)c1cc2cnc(Nc3ccc(N4CCNCC4)cn3)nc2n1C1CCCC1 | human neutrophils | – | – | 1 to 10 µM, together with: fMLF | – | PKA activity | increased
CCCCCCCC(=O)Oc1c(C)c(O)c(C(=O)/C=C/c2ccccc2)c(OC)c1C | FaDu | SRB | – | – | relative to: normal over FaDu IC50 | selectivity index | 1.22
Cc1ccc(NC(=O)[C@H]2CCCN(C(=O)c3c(C)cccc3F)[C@H]2c2ccc(NC3CCCC3)cc2)cc1C(F)(F)F | human peripheral blood neutrophils | flow cytometry FSC/SSC | – | 0.1 µM, together with: TNF-α 5 ng/mL, MPO-ANCA immune complex | relative to: unstimulated neutrophils | neutrophil swelling | 2.74 fold change and 2.96 fold change and 3.99 fold change and 2.69 fold change
O=C(Nc1nnc2n3c(nc(-c4ccc(Cl)cc4)c1-2)SCC3=O)c1ccccc1 | MDA-MB-231/ATCC | NCI60 SRB | – | 10 µM | – | growth percent | 86.1%
Cc1cc(Nc2ncc(Cl)c(Nc3ccccc3S(=O)(=O)C(C)C)n2)c(OC(C)C)cc1C1CCNCC1 | NCI-H2228 (EML4-ALK variant 3) | cell viability | – | – | – | Emax | 30.3%
C=C(CC)C(=O)c1ccc(OCC(=O)O)c(Cl)c1Cl | human neutrophils | sulfate/chloride exchange, competitive inhibitor | – | – | – | Ki | ~7 µM
CCOC(=O)/C=C\C(=O)OCC | HepG2 | item: glutathione | – | 24 h, distribution mode 2 | – | point of departure | 245 µM
CCN(CCO)CCCC(C)Nc1ccnc2cc(Cl)ccc12 (stereo not shown) | human PBMC | qRT-PCR, item: OASL mRNA | – | 1000 nM, together with: ssRNA | – | inhibition | -7 ± 10%
CC(C)(C)c1nc(-c2cccc(NS(=O)(=O)c3c(F)cccc3F)c2F)c(-c2ccnc(N)n2)s1 | A2780/CP | annexin V/PI flow cytometry | – | concentration not given, 48 h | relative to: untreated | early apoptotic cells | 42.3 ± 4.7%
COc1cnc2cccc(N3CCc4c(cc(Cn5ccnc5C)cc4-c4cn(C)nc4C(F)(F)F)C3=O)c2c1 | PSN1 | cell growth, inhibitor | – | 120 h | – | EC50 | 0.141 µM
CN(CCCN1CCN(C(=O)[C@H](CCCCNC(=O)CC[C@H](C(=O)O)N2CCN(CC(=O)O)CCN(CC(=O)O)CC2)NC(=O)CCOCCOCCOCCOCCN)CC1)c1ccc2nccc(C(=O)NCC(=O)N3CC(F)(F)C[C@H]3C#N)c2c1 | HT-1080 cells expressing human FAP | flow cytometry | – | 0.2 µM, epitope accessibility, 200 nM | – | binding | no binding
CCCCCCCC(=O)Nc1ncc(Cc2cccc(OCc3cn(CCOC)nn3)c2)s1 | PC-3M-luc | cell viability, MTS | – | 10 µM | – | inhibition | 21.2 ± 13.8%
NNc1nc(-c2ccc(Cl)cc2)c2c(NC(=O)c3ccccc3)nnc-2[nH]1 | Malme-3M | SRB | – | 10 µM, NCI60 single-dose screen | relative to: untreated | cell growth | 98.5%
O=C(C[C@@H](C(F)F)n1ccc(F)n1)N1CCC(O)(Cn2cnc3c(cnn3-c3ccc(F)cc3)c2=O)CC1 | CHP-212 parental (wild-type USP7) | PI flow cytometry | – | 0.1 µM, 24 h | – | cells in G2/M phase | 10.6% and 16.3% and 13.9%
C=CC1=C(C)c2cc3[n-]c(cc4nc(cc5[n-]c(cc1n2)c(C)c5C=C)C(C)=C4CCC(=O)O)c(CCC(=O)O)c3C.[Zn+2] | SH-SY5Y | RNA-seq, item: RYR3 mRNA | – | 5 µM, 5 h | relative to: untreated cells | fold change | 2.18
COc1cc(N2CCC(N3CCN(C)CC3)CC2)ccc1Nc1ncc(Cl)c(Nc2ccccc2P(C)(C)=O)n1 | Ba/F3 EML4-ALK v1 | cell viability | – | – | – | Emax | 100%
CC/C(=N\NC(=O)C(C)Nc1ccccc1)c1ccc(O)c(C)c1O (stereo not shown) | SK-OV-3 | Western blot | – | 10 µM, 6 h, 3D gellan gum culture, unit not given | relative to: DMSO | TAZ band intensity | 0.24 ± 0.03
COc1c(C)c(OC(=O)c2ccc(C)cc2)c(C)c(O)c1C(=O)/C=C/c1ccccc1 | FaDu | SRB | – | – | relative to: normal over FaDu IC50 | selectivity index | 1.15
c1ccc2[nH]ccc2c1 | HCT-8 | RNA-seq, item: CHAC1 | – | concentration not given | – | mRNA level, LS mean | 100 counts per million
N#Cc1ccc(C[C@@H](NC(=O)c2cc3cc([N+](=O)[O-])ccc3[nH]2)C(=O)N2CCc3ccccc32)cc1 | human neutrophils | calcium mobilization, agonist | – | – | – | EC50 | > 50 µM
Cc1ccc(Cn2cc(COc3cccc(Cc4cnc(NC(=O)CSc5nc(C)cc(C)n5)s4)c3)nn2)cc1 | PC-3M-luc | colony formation, colony forming | – | 10 µM | – | inhibition | 28 ± 7.6%
CSCC[C@H](NC(=O)[C@H](Cc1ccc(OS(=O)(=O)O)cc1)NC(=O)[C@@H](N)CC(=O)O)C(=O)NCC(=O)N[C@@H](Cc1c[nH]c2ccccc12)C(=O)N[C@@H](CCSC)C(=O)N[C@@H](CC(=O)O)C(=O)N[C@@H](Cc1ccccc1)C(N)=O | HEK293T control virus | agonist, GloSensor cAMP | – | 0.64 nM, no receptor expressed | higher = more cAMP | cAMP accumulation | 0.2 a.u.
